Literature values, collected from citations in different studies.
Protocols differ between the studies behind these lines.

C[C@H]1C[C@@H]2[C@H]([C@@H](O)C[C@@]3(C)[C@H]2CC[C@]3(O)C(=O)CO)[C@@]2(C)C=CC(=O)C=C12 — Cmax (human, plasma; concentration not given, range of reported values): 0.061 to 2.11 µM
O=C(O)CSc1nnc(Br)n1-c1ccc(C2CC2)c2ccccc12 — Cmax (human, plasma total; 600 mg): 45 µM
CC(C)[C@H](N)C(=O)NCCCS(=O)(=O)O — Cmax (human, plasma; dose not given): 6460 ng/mL
COC(=O)[C@H](c1ccccc1)[C@H]1CCCCN1 — Cmax (human, by CES1 genotype, plasma; oral, 10 mg methylphenidate, single dose, median): 6.4 ng/mL
CC(C)(C)[C@@H]1NC(=O)O[C@@H]2CCC[C@H]2OC/C=C/C(F)(F)c2nc3ccccc3nc2O[C@@H]2C[C@@H](C(=O)N[C@]3(C(=O)NS(=O)(=O)C4(C)CC4)C[C@H]3C(F)F)N(C2)C1=O — Cmax (human patients, plasma; dose not given, single or steady-state dosing, with: with co-medication): 0.7 µM
C=C1C[C@@H]2[C@H](CC[C@]3(C)C(=O)CC[C@@H]23)[C@@]2(C)C=CC(=O)C=C12 — Cmax (human, plasma; concentration not given, range of reported values): 0.003 to 59100 µM
CCCCCc1cc(O)c2c(c1)OC(C)(C)[C@@H]1CCC(C)=C[C@@H]21 — Cmax (human, plasma; dose not given, therapeutic dronabinol dosing): 0.025 µM
N#Cc1ccccc1-c1cc(-c2ccccn2)cn(-c2ccccc2)c1=O — Cmax (human, plasma total; 6 mg): 0.846 µM
CC(NCCc1ccc(O)cc1)C(O)c1ccc(O)cc1 (stereo not drawn) — Cmax (human, plasma; concentration not given, range of reported values): 0.014 to 0.154 µM
COc1ccc2c(O[C@@H]3C[C@H]4C(=O)N[C@]5(C(=O)NS(=O)(=O)C6CC6)C[C@H]5/C=C\CCCCN(C)C(=O)[C@@H]4C3)cc(-c3nc(C(C)C)cs3)nc2c1C — Cmax (human patients; 150 mg per 24 h, recommended dose): 5.6 µM
O=c1n(CCCN2CCN(c3cccc(Cl)c3)CC2)nc2ccccn12 — Cmax (human, plasma; concentration not given, range of reported values): 1.57 to 2.91 µM
O=C(O)c1ccc(CN2C[C@@H]3C[C@H]2CN3Cc2ccc(Oc3ccc(-c4ncco4)cc3)cc2)cc1 — Cmax (human, plasma total; 100 mg): 4.78 µM
O=C(O)[C@H](c1ccccc1)[C@H]1CCCCN1 — Cmax (human, CES1 wild type, plasma; oral, 10 mg methylphenidate, single dose, median): 69.5 ng/mL
C#C[C@]1(O)CC[C@H]2[C@@H]3CCc4cc(O)ccc4[C@H]3CC[C@@]21C — Cmax (human, plasma; concentration not given, range of reported values): < 0.313 µM
CC(C)(C)NCc1ccc(Nc2ccnc3cc(Cl)ccc23)cc1O — Cmax (human; 2000 mg once daily): 1.5 µM
COc1ccccc1Oc1c(NS(=O)(=O)c2ccc(C(C)(C)C)cc2)nc(-c2ncccn2)nc1OCCO — Cmax (human; 125 mg, 7 days): 2.8 µM
C[C@@H]1CS/C(=N\NC(=O)C(=O)[C@H](NC(=O)C2CCCCCC2)C2CCOCC2)N1C — Cmax (human; 300 mg once daily): 1.6 µM
CC(C)(C)NC(=O)N[C@H](C(=O)N1C[C@H]2[C@@H]([C@H]1C(=O)NC(CC1CCC1)C(=O)C(N)=O)C2(C)C)C(C)(C)C (stereo partly drawn) — Cmax (human patients, plasma; dose not given, single or steady-state dosing, with: with co-medication): 3.3 µM

For quick reference, copied from above:
CC(C)(C)NCc1ccc(Nc2ccnc3cc(Cl)ccc23)cc1O — Cmax (human; 2000 mg once daily): 1.5 µM
O=C(O)[C@H](c1ccccc1)[C@H]1CCCCN1 — Cmax (human, CES1 wild type, plasma; oral, 10 mg methylphenidate, single dose, median): 69.5 ng/mL
